Experimental data of several laboratories.
Each numbered part is a random draw from the data of one study; scales do not carry over between parts. Several values in a cell are separate wells, animals, samples, runs or records. pIC50: −log10 of the molar value.
Chain of UniProt P42681 (whole entry, looked up): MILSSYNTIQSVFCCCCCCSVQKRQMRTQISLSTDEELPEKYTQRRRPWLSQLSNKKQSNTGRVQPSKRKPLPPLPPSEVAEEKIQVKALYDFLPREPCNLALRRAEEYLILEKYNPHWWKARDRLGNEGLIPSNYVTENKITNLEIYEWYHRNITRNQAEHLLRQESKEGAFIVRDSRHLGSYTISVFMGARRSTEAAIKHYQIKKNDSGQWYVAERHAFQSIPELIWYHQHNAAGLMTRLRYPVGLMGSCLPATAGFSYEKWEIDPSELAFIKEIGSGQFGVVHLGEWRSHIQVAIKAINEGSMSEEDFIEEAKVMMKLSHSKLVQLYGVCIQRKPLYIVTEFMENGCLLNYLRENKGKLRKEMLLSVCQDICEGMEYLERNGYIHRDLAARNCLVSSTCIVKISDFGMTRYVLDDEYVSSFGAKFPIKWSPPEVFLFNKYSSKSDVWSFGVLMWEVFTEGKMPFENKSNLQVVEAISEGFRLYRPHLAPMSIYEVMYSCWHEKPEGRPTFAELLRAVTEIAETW
Chain of UniProt P50613 (whole entry, looked up): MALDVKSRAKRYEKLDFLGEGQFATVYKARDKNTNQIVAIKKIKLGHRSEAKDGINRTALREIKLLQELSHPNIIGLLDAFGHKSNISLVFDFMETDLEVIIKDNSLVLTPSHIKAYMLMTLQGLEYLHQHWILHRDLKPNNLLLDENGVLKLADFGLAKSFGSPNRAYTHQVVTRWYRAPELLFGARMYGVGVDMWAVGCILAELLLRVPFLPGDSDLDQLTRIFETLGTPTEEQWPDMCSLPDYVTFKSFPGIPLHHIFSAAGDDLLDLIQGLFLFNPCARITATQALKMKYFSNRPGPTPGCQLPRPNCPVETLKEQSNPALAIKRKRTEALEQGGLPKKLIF

Series 1
Structure (SMILES): C[C@@H]1CN(c2ccc(-c3cc(C(=O)NCCOCCOCCOCCOCCOCCOCCNC(=O)/C=C/c4[nH]cc(C(=O)N[C@@H](CC(N)=O)c5ccc(F)c(Cl)c5)c4-c4ccc(Cl)cc4F)ccc3F)cc2NC(=O)c2ccc(F)cc2C(F)(F)F)C[C@H](C)N1C
Read-out: thermal unfolding
Technique: differential scanning fluorimetry
Tested at: 5.5 µM
Direction: higher = more unfolded
DCAF1: DDB1- and CUL4-associated factor 1 (DCAF1, Homo sapiens, UniProt Q9Y4B6)
Chain of UniProt Q9Y4B6 (whole entry, looked up): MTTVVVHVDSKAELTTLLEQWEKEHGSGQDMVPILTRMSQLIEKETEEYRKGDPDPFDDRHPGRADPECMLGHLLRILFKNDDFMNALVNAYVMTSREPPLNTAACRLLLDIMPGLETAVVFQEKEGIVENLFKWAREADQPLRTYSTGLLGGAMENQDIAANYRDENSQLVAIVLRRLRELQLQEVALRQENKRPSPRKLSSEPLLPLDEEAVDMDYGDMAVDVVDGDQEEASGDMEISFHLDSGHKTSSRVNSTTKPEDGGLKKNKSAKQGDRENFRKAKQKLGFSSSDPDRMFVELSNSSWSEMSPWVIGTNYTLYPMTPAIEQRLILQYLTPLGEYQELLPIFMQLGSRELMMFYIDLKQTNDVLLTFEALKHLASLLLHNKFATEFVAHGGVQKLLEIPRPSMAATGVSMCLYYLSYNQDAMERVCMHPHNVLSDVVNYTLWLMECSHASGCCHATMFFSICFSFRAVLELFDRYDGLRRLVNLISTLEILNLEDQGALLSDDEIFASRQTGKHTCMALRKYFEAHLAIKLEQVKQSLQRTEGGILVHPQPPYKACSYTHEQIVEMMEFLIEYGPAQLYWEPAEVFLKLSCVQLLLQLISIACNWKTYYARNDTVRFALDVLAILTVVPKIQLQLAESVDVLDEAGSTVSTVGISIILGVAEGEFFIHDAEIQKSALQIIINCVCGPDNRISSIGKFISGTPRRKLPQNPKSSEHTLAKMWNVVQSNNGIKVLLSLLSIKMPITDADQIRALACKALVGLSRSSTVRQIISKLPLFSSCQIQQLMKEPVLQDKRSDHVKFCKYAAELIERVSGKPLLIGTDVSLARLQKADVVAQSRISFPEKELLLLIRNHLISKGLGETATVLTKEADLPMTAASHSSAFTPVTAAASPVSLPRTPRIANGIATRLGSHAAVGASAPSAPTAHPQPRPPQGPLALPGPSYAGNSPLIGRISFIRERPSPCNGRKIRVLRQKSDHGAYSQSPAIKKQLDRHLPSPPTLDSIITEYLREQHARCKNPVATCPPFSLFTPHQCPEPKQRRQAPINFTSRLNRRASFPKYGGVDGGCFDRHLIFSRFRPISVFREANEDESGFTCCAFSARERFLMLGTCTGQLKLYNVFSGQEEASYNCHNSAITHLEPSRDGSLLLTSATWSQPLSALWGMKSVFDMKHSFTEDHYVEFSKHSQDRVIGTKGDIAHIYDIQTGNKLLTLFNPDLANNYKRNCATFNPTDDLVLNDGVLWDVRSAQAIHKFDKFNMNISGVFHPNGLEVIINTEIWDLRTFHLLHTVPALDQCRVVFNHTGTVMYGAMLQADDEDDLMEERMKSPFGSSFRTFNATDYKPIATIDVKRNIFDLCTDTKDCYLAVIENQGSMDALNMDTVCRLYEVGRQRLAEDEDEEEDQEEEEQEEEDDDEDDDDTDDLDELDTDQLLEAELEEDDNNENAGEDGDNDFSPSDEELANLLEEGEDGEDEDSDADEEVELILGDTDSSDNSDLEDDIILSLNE
WDR5: WD repeat-containing protein 5 (WDR5, Homo sapiens, UniProt P61964)
DCAF1; 86.01 °C — “SYPRO Orange fluorescence”: 34900 a.u.
The “SYPRO Orange fluorescence” was 36100 a.u. (DCAF1; 84.81 °C).
For WDR5; 73.61 °C: “SYPRO Orange fluorescence” read 42600 a.u.
For DCAF1; 65.81 °C: “SYPRO Orange fluorescence” read 52900 a.u.
It gave 61400 a.u. for “SYPRO Orange fluorescence” (WDR5; 78.41 °C).
For WDR5; 92.21 °C: “SYPRO Orange fluorescence” read 51500 a.u.
For DCAF1; 89.01 °C: “SYPRO Orange fluorescence” read 33100 a.u.
It gave 13500 a.u. for “SYPRO Orange fluorescence” (WDR5; 27.8 °C).
For WDR5; 87.61 °C: “SYPRO Orange fluorescence” read 58400 a.u.
DCAF1; 91.21 °C — “SYPRO Orange fluorescence”: 31500 a.u.
For WDR5; 50.4 °C: “SYPRO Orange fluorescence” read 16500 a.u.

Series 2
Target: E3 ubiquitin-protein ligase NEDD4 (Homo sapiens, UniProt P46934)
Chain of UniProt P46934 (whole entry, looked up): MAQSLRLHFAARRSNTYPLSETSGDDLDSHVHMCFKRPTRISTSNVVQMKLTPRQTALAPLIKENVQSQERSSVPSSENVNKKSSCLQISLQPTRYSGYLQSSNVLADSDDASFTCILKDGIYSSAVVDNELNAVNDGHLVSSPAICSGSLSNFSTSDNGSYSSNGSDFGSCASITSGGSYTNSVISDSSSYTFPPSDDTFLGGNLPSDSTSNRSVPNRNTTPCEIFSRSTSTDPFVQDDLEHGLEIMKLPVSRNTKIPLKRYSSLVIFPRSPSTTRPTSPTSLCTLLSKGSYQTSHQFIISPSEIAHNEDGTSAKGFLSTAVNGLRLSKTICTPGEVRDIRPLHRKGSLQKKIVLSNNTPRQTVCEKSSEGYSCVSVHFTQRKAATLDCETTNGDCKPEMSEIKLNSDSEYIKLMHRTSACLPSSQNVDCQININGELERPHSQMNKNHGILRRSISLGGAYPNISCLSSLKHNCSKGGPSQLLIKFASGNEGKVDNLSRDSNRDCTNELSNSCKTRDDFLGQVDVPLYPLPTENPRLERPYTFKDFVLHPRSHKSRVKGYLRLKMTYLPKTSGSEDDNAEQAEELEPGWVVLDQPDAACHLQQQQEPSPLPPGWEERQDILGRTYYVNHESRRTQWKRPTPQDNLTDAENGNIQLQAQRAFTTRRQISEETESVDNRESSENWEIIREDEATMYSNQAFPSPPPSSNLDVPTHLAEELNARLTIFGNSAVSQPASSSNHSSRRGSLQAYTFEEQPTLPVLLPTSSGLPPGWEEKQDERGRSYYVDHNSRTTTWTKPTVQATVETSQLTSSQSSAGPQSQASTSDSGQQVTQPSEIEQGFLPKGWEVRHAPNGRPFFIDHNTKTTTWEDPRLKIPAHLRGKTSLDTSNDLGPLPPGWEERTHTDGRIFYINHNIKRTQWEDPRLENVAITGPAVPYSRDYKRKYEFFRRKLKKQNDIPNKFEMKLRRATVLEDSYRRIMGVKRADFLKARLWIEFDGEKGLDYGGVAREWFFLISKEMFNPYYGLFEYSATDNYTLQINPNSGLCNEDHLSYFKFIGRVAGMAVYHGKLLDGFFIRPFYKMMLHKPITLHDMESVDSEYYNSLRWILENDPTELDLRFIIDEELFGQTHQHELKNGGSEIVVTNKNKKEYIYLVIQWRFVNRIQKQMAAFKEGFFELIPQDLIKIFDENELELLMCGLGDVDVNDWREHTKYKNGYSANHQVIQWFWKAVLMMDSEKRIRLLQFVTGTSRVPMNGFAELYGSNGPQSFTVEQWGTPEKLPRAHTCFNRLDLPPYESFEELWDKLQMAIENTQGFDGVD
Read-out: enzyme activity
Action: inhibitor
Technique: TR-FRET
CC(C)ONC(=O)/C=C/CNCCCCN1c2ccccc2CCc2ccc(Cl)cc21 has a pIC50 of 5.89.
For CCOC(=O)/C=C/CNCCCCN1c2ccccc2COc2ccc(Cl)cc21, the pIC50 was 6.19.
The pIC50 of CCONC(=O)/C=C/CNCCCCN1c2ccccc2CCc2ccc(Cl)cc21 is reported as 6.24.
For CNC(=O)/C=C/CNCCCCN1c2ccccc2CCc2ccc(Cl)cc21, the pIC50 was 4.80.
With CCOC(=O)/C=C/CNCCCCN1c2ccccc2C(=O)N(C)c2ccc(Cl)cc21 the pIC50 was 5.67.

Series 3
Compound: CNc1ncc2cc(-c3cc(OC)cc(OC)c3Cl)c(=O)n(CCc3ccc(NC(=O)C(C#N)=CC(C)(C)N4CCOCC4)cc3)c2n1
Read-out: kinase activity
FLT4: Vascular endothelial growth factor receptor 3 (FLT4, Homo sapiens, UniProt P35916)
Chain of UniProt P35916 (whole entry, looked up): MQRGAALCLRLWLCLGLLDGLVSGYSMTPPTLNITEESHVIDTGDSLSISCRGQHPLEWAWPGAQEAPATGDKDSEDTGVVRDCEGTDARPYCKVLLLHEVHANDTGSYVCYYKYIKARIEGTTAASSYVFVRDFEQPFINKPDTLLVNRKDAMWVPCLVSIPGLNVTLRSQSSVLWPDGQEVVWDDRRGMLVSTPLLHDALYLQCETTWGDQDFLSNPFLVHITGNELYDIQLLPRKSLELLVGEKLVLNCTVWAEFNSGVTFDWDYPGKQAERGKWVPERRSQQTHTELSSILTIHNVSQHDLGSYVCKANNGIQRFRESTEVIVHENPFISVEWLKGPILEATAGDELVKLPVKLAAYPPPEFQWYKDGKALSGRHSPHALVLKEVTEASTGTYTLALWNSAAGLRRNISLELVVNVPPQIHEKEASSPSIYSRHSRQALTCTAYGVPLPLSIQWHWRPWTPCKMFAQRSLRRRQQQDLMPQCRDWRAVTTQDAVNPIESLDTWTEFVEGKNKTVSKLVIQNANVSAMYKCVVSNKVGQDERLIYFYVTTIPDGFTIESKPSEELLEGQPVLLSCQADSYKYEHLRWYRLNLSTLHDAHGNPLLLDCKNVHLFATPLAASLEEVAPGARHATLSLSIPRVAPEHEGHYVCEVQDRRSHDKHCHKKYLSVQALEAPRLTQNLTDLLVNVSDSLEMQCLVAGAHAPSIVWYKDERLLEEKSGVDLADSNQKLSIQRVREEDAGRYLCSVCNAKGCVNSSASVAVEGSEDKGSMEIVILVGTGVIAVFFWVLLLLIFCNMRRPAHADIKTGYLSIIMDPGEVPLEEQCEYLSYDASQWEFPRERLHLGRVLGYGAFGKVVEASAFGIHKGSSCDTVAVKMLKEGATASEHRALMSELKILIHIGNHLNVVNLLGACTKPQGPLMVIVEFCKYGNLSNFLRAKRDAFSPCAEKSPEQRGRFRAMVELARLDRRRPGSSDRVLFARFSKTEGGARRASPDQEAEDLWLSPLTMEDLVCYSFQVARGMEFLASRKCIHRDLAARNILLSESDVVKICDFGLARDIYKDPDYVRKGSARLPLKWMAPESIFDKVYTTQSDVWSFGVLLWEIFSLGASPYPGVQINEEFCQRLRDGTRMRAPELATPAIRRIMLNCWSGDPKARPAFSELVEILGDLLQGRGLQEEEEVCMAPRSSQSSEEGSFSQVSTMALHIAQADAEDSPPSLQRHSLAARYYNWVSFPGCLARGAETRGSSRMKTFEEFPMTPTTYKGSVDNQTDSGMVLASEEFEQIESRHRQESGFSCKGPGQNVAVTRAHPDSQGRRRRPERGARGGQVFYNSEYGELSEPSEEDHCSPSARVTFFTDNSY
For PDGFRA (Homo sapiens, UniProt P16234); 1 µM: inhibition read 58%.
For MAPK8 (Homo sapiens, UniProt P45983); 0.1 µM: inhibition read 8%.
For PHKG2 (Homo sapiens, UniProt P15735); 0.1 µM: inhibition read -1%.
It gave 14% for inhibition (HIPK4 (Homo sapiens, UniProt Q8NE63); 1 µM).
It gave 0% for inhibition (TXK (Homo sapiens, UniProt P42681); 0.1 µM).
The inhibition was 5% (TNK1 (Homo sapiens, UniProt Q13470); 1 µM).
ERBB2 (Homo sapiens, UniProt P04626); 0.1 µM — inhibition: 7%.
It gave -5% for inhibition (PIK3CA (Homo sapiens, UniProt P42336); 0.1 µM).
CDK7 (Homo sapiens, UniProt P50613); 0.1 µM — inhibition: -5%.
It gave 0% for inhibition (PIM1 (Homo sapiens, UniProt P11309); 1 µM).
The inhibition was -7% (DYRK1A (Homo sapiens, UniProt Q13627); 0.1 µM).
For Protein kinase C beta type, isoform beta-I (PRKCB, Homo sapiens, UniProt P05771); 1 µM: inhibition read 3%.
TNK2 (Homo sapiens, UniProt Q07912); 0.1 µM — inhibition: -1%.
EPHA1 (Homo sapiens, UniProt P21709); 1 µM — inhibition: 23%.
The inhibition was 1% (Cyclin-dependent kinase 2, with cyclin E (CDK2, Homo sapiens, UniProt P24941); 0.1 µM).
MAP4K5 (Homo sapiens, UniProt Q9Y4K4); 0.1 µM — inhibition: -3%.
FLT4; 0.1 µM — inhibition: 61%.
It gave > 90% and 91% for inhibition (FLT4; 1 µM).
For CAMK2B (Homo sapiens, UniProt Q13554); 0.1 µM: inhibition read 2%.
For BRSK2 (Homo sapiens, UniProt Q8IWQ3); 1 µM: inhibition read -2%.
The inhibition was -6% (NEK9 (Homo sapiens, UniProt Q8TD19); 1 µM).

Series 4
SMILES: Cc1ncc(-c2cc3c(Cl)c(-c4c(C)ccc(O)c4C)cnc3[nH]2)cn1
Target: Membrane-associated tyrosine- and threonine-specific cdc2-inhibitory kinase (PKMYT1, Homo sapiens, UniProt Q99640)
Read-out: binding
Technique: HTRF
Construct (Q99640 1-499): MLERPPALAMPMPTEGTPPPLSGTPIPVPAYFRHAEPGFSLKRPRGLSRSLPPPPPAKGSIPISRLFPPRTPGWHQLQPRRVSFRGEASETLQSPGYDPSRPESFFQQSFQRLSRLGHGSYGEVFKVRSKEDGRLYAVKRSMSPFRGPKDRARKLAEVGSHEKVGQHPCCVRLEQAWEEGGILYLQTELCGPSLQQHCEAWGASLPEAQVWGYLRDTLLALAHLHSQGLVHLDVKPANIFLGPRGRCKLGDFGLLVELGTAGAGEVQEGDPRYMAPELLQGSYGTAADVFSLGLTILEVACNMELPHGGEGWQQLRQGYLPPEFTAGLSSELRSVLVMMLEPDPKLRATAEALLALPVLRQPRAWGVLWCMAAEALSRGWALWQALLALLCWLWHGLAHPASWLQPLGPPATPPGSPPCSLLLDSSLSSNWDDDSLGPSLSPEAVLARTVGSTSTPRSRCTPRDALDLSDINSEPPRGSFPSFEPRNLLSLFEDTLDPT
The inhibition was 84.7% and 81% (1111.11 nM).
The inhibition was -0.2% and -8.52% (13.72 nM).
The inhibition was 98.7% and 99.4% (10000 nM).
The inhibition was -5.32% and -12% (4.57 nM).
It gave 96.3% and 95% for inhibition (3333.33 nM).

A few entries again (series 3):
TNK2 (Homo sapiens, UniProt Q07912); 0.1 µM — inhibition: -1%.
EPHA1 (Homo sapiens, UniProt P21709); 1 µM — inhibition: 23%.
The inhibition was 1% (Cyclin-dependent kinase 2, with cyclin E (CDK2, Homo sapiens, UniProt P24941); 0.1 µM).
MAP4K5 (Homo sapiens, UniProt Q9Y4K4); 0.1 µM — inhibition: -3%.
FLT4; 0.1 µM — inhibition: 61%.
It gave > 90% and 91% for inhibition (FLT4; 1 µM).
For CAMK2B (Homo sapiens, UniProt Q13554); 0.1 µM: inhibition read 2%.
